Measurements collected from several papers.
Every numbered part comes from another study and shows a few of its results, in no order. Positions count from the first letter of the parent shown.

Sample 1
Target: CCND3, cyclin fold, Cln2 fusion (human)
Method: yeast growth competition, sequencing
Medium: yeast
Setting: weak parent motif
Baseline: not given
Reading: higher = stronger binding
Starting sequence: CDKN1B docking peptide (human); PSACRNLFGPVDH; partner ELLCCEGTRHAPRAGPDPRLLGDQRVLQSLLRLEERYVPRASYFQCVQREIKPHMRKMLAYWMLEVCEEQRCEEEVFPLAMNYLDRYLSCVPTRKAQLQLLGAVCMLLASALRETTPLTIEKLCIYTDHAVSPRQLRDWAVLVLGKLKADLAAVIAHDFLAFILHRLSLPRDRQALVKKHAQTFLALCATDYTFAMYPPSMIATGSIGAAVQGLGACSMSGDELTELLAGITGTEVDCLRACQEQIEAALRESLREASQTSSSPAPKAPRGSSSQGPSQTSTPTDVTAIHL
`PSACRNLFGVVDH [P10V]` — result for “normalised enrichment score”: 0.117.
Under “normalised enrichment score”, `PSACRNLFGPVDC [H13C]` is recorded as 0.0969.
`PSACNNLFGPVDH [R5N]`: “normalised enrichment score” 0.169.
`PSACANAFGPVDH [R5A L7A]`: “normalised enrichment score” 0.0742.
For `PSACVNLFGPVDH [R5V]`, “normalised enrichment score” read 0.12.
For `PTACRNLFGPVDH [S2T]`, “normalised enrichment score” read 0.134.
For `PSACRNLMGPVDH [F8M]`, “normalised enrichment score” read 0.0905.
For `SSACRNLFGPVDH [P1S]`, “normalised enrichment score” read 0.0631.
`PIACRNLFGPVDH [S2I]`: “normalised enrichment score” 0.136.
`PSACRNLFKPVDH [G9K]` — result for “normalised enrichment score”: 0.262.
For `PSACRNLIGPVDH [F8I]`, “normalised enrichment score” read 0.143.
`LSACRNLFGPVDH [P1L]`: “normalised enrichment score” 0.139.
`PSVCRNLFGPVDH [A3V]` — result for “normalised enrichment score”: 0.15.
`PSACRNLFGPVDI [H13I]`: “normalised enrichment score” 0.119.
For `PSACRNLFGPVCH [D12C]`, “normalised enrichment score” read 0.144.
For `PSACRNLWGPVDH [F8W]`, “normalised enrichment score” read 0.133.
For `PSALRNLFGPVDH [C4L]`, “normalised enrichment score” read 0.11.
For `PSACRNLFGPVDA [H13A]`, “normalised enrichment score” read 0.0936.
For `PSACRNLFGPVWH [D12W]`, “normalised enrichment score” read 0.149.
For `PSAFRNLFGPVDH [C4F]`, “normalised enrichment score” read 0.149.
Under “normalised enrichment score”, `PSACRNLFGPYDH [V11Y]` is recorded as 0.0984.
Under “normalised enrichment score”, `PSACRNLFGWVDH [P10W]` is recorded as 0.125.

Sample 2
Target: ABI1, truncated, D143A, DHFR fusion (Arabidopsis thaliana)
Method: DHFR PCA, deep sequencing
Medium: yeast
Setting: methotrexate growth selection, single substitutions
Together with: (+)-ABA 58 µM
Baseline: wild-type fitted maximum
Reading: higher = stronger binding
Starting sequence: PYL1, truncated, DHFR fusion (Arabidopsis thaliana); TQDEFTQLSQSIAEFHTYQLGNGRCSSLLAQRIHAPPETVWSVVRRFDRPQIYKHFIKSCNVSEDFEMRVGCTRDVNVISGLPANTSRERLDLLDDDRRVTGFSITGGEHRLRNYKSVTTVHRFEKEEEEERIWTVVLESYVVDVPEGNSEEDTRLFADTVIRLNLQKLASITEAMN; partner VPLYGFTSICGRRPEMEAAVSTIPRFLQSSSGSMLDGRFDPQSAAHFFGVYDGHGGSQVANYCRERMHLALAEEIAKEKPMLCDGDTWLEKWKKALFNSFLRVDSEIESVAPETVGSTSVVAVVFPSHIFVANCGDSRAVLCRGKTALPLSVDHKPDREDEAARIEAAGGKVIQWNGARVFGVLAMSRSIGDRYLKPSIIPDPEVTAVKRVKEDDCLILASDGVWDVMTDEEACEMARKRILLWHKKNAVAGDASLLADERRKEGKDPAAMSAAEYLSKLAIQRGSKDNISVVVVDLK
Under “relative binding score”, `E127M` is recorded as 90.4%.
`V78W`: “relative binding score” 32.4%.
For `S80L`, “relative binding score” read -0.234%.
`H122E`: “relative binding score” 63.8%.
`D95I`: “relative binding score” 46.5%.
For `N149G`, “relative binding score” read 45.8%.
For `G71Q`, “relative binding score” read 22.9%.
Under “relative binding score”, `R45Q` is recorded as -5.83%.
Under “relative binding score”, `K54L` is recorded as -3.87%.
`S80R` — result for “relative binding score”: 20.6%.
For `S59Y`, “relative binding score” read 61.6%.
Under “relative binding score”, `T101N` is recorded as 1.13%.
`C60R`: “relative binding score” 14.3%.
Under “relative binding score”, `T106S` is recorded as 59.6%.
Under “relative binding score”, `A35Q` is recorded as 28.7%.
`L29R`: “relative binding score” 65.1%.

Sample 3
Molecule: PhoQ, residues 284 288 289 292 302 303 TTSMTC
Method: Sort-seq
Item: YFP reporter
Medium: E. coli
Setting: PhoQ-PhoP variant library
Together with: 10 µM Mg2+
Baseline: high Mg2+ state
Reading: higher = stronger signaling
For PhoP, residues 12 14 15 18 19 TPWTL (Escherichia coli, UniProt P23836): fold induction read 7.75.
For PhoP, residues 12 14 15 18 19 VGHWL (Escherichia coli, UniProt P23836): fold induction read 2.89.
The fold induction was 8.45 (PhoP, residues 12 14 15 18 19 NFFVT (Escherichia coli, UniProt P23836)).
PhoP, residues 12 14 15 18 19 LHHYF (Escherichia coli, UniProt P23836) — fold induction: 9.57.

Sample 4
Target: RING finger protein unkempt homolog, zinc fingers 1-6, GST-SBP tag (UNK, Homo sapiens, UniProt Q9C0B0, residues 30-357)
Chain of UniProt Q9C0B0 (30-357, looked up): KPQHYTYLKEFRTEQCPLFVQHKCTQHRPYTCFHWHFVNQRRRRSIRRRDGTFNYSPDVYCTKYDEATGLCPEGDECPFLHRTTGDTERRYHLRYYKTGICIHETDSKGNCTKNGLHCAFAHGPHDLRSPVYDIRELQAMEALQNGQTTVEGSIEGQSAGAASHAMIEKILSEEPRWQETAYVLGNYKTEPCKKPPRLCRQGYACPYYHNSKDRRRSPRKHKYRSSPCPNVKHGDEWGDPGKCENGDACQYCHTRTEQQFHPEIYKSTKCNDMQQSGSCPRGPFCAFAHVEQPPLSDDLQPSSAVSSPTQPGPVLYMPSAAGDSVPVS
Method: RNA Bind-n-Seq
Molecule type: RNA
Medium: in vitro
Tested at: not given
Setting: RNA with constant flanks, human and mouse sites, ends assumed
Baseline: input RNA pool
Reading: higher = stronger binding
All sequences stand within: GGGAGUUCUACAGUCCGACGAUC … CAACAGAGGAUUGAGCAUCA
`CCUGCAGCGGCCAAGAAGCCAAAAAUCUUUUCCUCUUUUUUUUUUCUCAGAUACUGUGCCCCAUUUUUGGAGAGGGGAAGGUGGGCAUUGCUAAAUGGCUAAUGUACUGUUCCCCCAGCU` gave a bound/input enrichment of 0.476 ratio.
`GUGGUCCACGACUGUCCCGUCUGGGACAUAUUUGACAGUGAUUGGUACACUUCUCGAAAUCUAAUUGGGGGCGCUGACAUCAUUGUGAUCAAAUACAACGUUAAUGACAAGUUUUCAUUC` has a bound/input enrichment of 0.124 ratio.
The bound/input enrichment of `CUGGGAAUUGGGCCAGGACCAGUAGAACUAAUUGAUGAAGUUACUGGCCACCUAAAACUUUACUAGAUAAGCUUUUGCUUGAUGGAGAUUCUGUCCGAAGACUAUGGAGCCUGUCAGUAA` is reported as 0.392 ratio.
With `UCCGUUUUGGAAGAGUUGCAGAAAGACCUAGAAGAGGUCAAAGUAUUGCUGGAAAAGUCCACUAGGAAAAGACUACGUGAUACUCUUACAAGUGAAAAGUCCAAGAUUGAGACGGAACUC` the bound/input enrichment was 0.356 ratio.
With `UCAGAGGAAAUCGAGACAAGCGAACUGCCCCAGAAAAUGAAAGGCAAGCUGAAAAAUGUACAGUUAAAUACUAAAAGUAGAGUAAAAGGAUCAUCUAAGGUUAAGGAAGAUUCAAAAUUU` the bound/input enrichment was 0.961 ratio.
For `UUGGAAGGACCAGAGCCCAGUCAGCUCAAACCACUAGUUAUACAGGCUAUGCCCACCCUAAUAGAAUUAAUGAAAGACCCCAGUGUAGUUGUUCGAGAUACAGCUGCAUGGACUGUAGGC`, the bound/input enrichment was 5.17 ratio.
With `UCAUAUCAAACAUUAAAUUUAAAAGUGACCACUCUUAAUUAAAAUUAACUUUUAAAUGUUUAUAGGAGUACGUGCUGUGAAGUGAUCUGAAAUUUGUAAUAUUUUUGUCAUGAACCGUAC` the bound/input enrichment was 0.35 ratio.
For `GCUCCUAUUAAUGAGGUGGCAAGAUUUAACCUGAUGCAGGUUGGCCGCCUUUUGCAGCAGCUAGCAAUGACUGGCACUGAAGAAGGAGAUCCCCGGACCAAAAAUAGCCUUGGAAAAUUU`, the bound/input enrichment was 0.295 ratio.
With `GUAAGAGGUGAGAAGGAAUCUUUAGAUCUUCGAAAGGAAAAAGAGACACUUGAGAAAAAACUUAGAGAUGCAAAUAAGGAACUUGAGAAAAACACUAACAAAAUUAAGCAGCUUUCUCAG` the bound/input enrichment was 0.985 ratio.
`AUCUUGCAGGCAGGAUUGAUUUGAACAGGGAUUACUUCAACACACAUUUGUUUGUCUUUAUCUUUGUGUCAUUAUUGCAUGAUGUUGUUCGCUUAGAGAUGGCAUCCUUUUCUUACCAUU` has a bound/input enrichment of 0.201 ratio.
`CCUCCCACCAAGGGCCUCCGCAAGGAAGAGCGGCCCGGGCCAGGCCCUGGGGAGGUGCGCAUCGCCUUCCGCAUCUCCAACGGCCGGGAGCCCCGUGCACCAGACAGCGGCCUGCCCAGU` has a bound/input enrichment of 0.143 ratio.

Sample 5
Target: Hepatocyte nuclear factor 3-alpha (Foxa1, Mus musculus, UniProt P35582, residues 1-468, full length assumed)
Method: EMSA with sequencing
Molecule type: double-stranded DNA, one strand shown
Medium: in vitro
Tested at: 10 and 20 nM
Setting: whole designed probe, mean of two concentrations, ends assumed
Baseline: negative control set to 0
Reading: higher = stronger binding
All sequences stand within: GTGAGCGGTGCCCATTGATGGGGAAC … TTTCACTGGGATCGTGGGGAC
Construct (chain): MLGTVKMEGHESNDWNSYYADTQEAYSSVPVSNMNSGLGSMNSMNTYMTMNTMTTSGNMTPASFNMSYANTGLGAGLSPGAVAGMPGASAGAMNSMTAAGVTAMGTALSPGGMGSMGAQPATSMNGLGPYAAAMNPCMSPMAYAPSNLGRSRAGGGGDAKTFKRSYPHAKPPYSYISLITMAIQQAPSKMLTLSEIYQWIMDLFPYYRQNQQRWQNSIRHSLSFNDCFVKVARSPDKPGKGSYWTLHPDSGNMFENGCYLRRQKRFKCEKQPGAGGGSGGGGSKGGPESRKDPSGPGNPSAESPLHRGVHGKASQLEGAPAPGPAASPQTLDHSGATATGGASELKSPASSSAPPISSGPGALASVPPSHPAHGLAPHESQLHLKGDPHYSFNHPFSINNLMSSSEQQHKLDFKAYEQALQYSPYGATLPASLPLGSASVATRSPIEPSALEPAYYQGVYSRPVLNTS
`GCGACGGCGCCCAATGAGCGGCCAGGATGTTGGAGCGCCGGCGGCGGTCCGGGCGCTCGCTGGCTGAGGGACGGCGGCCGCCGCCATGATGCTAGATTGCTTTCAATGAAAACGAGGGGGGCGCGGAGGAGGAGGCGGCGGCGTCGGTGGCGGCGGCGACGGCGGCGCGGAGGCGAAGGCAGCGGCGGGCGCA` — result for “normalised bound fraction”: 0.0984 ratio.
`CCTGCACTCCTGCCGGTGGCCTGACCCCTTCTGCCCTGTGCCAATTGTCTGCACCCTCCATCCGGGGTTTGCCAGTCAGCCGGCCCAGAGCTATGTAATCTACAAGTCTAGATGTGTCCCTATTTGGGCAACTCTGCAAGGGAAAAATAAGAAGTTGTTAGAATGCTAAGAATGCAGAGCATCCGGAGATTCC`: “normalised bound fraction” -0.0683 ratio.
For `TAAGTACTGCTATTTTATTTTTTACCATAAAAGAGTTGTGTACACACACACAGTGTGCTTGTGCAAATATACTACACAGACACAAGTGTGGCTTATTTACCCTTGTGAAGTAAGTTATTTGAAAGAAAACATTGCCTTATTCACATTGTATCTCCTACAATGTGTTGTGCATAATGAAACAATAAATATTTAT`, “normalised bound fraction” read 0.443 ratio.
For `TGAGAATTGAACAGGGTGTAAAGAACCTGGAAAGCACCTGGAACAGTGCCAGCCCATAGTAAGTACGCAGCGAGAATGAGCTATTTGTATTGTGTAATCTTGGTGGACAGTGTCTGTTATGTATCCAAAATGATTGTTGTTGGAGACTAAGAGAAAATGGATGCAGCTACAGTACTGAGGAGGCTGCAGTGTC`, “normalised bound fraction” read 0.121 ratio.
`CACAGATTGCGGCCGTTTTTCAAATATTTGAGGAGTTCTTAGGTGTAGTTGTTCTATTCATTTCCTACTTATGTCCCTTTATTTTATTGCAAAATAATCTCAGCTTGGCACTTGACATTTTCCCTGACCCATCTTTTAAACATACATTAGATGTGAGTCATAGGCAATGAACGGAACTCGCATTTTTGCCCAC` — result for “normalised bound fraction”: 0.0239 ratio.
For `TGCAAAGGGCAAGATAGTTTCTCTGCTGTTAGCTTCAAAGGTTGTAGGTAATAAATTAAAAACTATAAGCAAATTTAAAGAATTAAAAGAAAAGCAATTTACTCTTGAGACTGATTTAGGTAGGTAATTTATCACTTCTTTATATCTCTCCCAGGAGATTAACTAGAGAAACTGTGGATATTGTATCAATGAG`, “normalised bound fraction” read -0.0347 ratio.
Under “normalised bound fraction”, `CAGACAACTCTATTTGAATATGAAAATTTCAACTTTAAACCTCTGAACTCTGCTGGGTCTGCAGAGGCGTTTTAATGTCAACCTCAGGAAATGTACTCTTGAAGCAGAATTTACAACTCATCACTGTCACAGTTAGATTAGAGTGTGAGTTAAAGAGTAATACATTAACCAGGGTTAGTGCATGGAGATTGTT` is recorded as 0.0119 ratio.
`TTGCAGGCTGCAGTGATGTCCTTCATATCACGTCATCTTAGTGCCACTTCATCTTTATTGGCATGTGTGGGAGGAACAAAACCCCAGTGGTATGCAATCTCCGTCATGGGGACTTGCTTCAAGCCATGGGAAGTTTCACGCAAAGCCAGTTTCTCAGTAGGGCAAATGTTGTGTAAAAGTACAAGAAGTTTGA`: “normalised bound fraction” -0.0229 ratio.
